Measured values gathered from unrelated publications.
Parts stem from different laboratories: compare values within a part only. Several values in a cell are separate wells, animals, samples, runs or records.
Chain of UniProt Q12851 (whole entry, looked up): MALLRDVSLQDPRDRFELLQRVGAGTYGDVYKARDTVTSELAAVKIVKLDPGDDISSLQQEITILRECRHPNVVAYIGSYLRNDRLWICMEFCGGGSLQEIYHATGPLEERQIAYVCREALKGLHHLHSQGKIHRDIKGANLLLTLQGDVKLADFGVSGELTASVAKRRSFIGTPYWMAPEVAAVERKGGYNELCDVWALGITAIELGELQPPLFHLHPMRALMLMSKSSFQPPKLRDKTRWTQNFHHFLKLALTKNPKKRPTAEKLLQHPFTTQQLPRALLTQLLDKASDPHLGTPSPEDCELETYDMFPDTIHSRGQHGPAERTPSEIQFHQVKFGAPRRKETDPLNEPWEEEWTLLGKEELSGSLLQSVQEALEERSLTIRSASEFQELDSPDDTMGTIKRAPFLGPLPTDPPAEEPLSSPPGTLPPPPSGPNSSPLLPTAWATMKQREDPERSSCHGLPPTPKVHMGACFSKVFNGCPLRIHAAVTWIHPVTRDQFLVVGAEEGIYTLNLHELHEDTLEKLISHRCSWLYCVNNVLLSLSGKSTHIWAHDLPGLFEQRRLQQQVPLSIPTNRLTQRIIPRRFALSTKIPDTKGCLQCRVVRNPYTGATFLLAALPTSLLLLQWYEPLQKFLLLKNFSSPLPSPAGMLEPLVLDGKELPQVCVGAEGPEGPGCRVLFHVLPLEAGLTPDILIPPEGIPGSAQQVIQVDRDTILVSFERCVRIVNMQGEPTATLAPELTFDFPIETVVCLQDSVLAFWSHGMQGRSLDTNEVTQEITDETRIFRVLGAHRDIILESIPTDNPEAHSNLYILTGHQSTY
Chain of UniProt P52564 (whole entry, looked up): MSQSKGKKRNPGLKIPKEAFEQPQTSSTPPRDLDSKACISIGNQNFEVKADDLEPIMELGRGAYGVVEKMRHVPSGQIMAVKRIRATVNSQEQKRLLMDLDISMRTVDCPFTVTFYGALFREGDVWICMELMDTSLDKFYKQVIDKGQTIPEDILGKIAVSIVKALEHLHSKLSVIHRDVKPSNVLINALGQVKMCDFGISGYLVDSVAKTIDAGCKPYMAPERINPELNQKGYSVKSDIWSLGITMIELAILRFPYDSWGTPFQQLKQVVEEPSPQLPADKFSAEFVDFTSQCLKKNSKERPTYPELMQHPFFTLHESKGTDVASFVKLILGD
Chain of UniProt P42336 (whole entry, unmodified, looked up): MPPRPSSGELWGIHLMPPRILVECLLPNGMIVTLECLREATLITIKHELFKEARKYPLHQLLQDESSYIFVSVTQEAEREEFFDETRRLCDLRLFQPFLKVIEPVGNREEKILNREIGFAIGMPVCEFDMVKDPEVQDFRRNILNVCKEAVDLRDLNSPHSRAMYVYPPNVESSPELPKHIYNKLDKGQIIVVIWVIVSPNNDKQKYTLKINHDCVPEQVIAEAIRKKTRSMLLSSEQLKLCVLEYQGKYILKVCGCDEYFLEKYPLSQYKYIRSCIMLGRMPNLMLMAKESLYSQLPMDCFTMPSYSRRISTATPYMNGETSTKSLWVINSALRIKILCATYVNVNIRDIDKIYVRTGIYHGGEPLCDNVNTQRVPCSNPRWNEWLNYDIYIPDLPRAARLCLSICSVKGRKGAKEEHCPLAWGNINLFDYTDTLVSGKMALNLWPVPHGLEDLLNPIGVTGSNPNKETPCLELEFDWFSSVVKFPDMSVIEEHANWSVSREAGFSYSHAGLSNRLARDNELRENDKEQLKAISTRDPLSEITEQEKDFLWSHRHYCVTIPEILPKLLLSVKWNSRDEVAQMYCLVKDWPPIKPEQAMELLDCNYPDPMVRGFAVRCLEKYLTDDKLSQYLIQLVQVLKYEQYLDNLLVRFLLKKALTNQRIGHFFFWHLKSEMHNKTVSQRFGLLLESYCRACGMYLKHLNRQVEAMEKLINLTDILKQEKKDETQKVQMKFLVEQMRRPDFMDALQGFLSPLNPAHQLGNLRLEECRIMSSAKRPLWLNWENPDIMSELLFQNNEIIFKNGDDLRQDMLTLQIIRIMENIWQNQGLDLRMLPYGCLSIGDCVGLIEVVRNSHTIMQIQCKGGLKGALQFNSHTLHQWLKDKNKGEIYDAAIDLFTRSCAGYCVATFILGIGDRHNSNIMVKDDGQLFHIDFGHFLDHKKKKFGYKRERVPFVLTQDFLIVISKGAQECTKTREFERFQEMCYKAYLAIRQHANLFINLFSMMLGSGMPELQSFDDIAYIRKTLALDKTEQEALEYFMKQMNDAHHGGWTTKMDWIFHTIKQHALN
Chain of UniProt P53778 (whole entry, looked up): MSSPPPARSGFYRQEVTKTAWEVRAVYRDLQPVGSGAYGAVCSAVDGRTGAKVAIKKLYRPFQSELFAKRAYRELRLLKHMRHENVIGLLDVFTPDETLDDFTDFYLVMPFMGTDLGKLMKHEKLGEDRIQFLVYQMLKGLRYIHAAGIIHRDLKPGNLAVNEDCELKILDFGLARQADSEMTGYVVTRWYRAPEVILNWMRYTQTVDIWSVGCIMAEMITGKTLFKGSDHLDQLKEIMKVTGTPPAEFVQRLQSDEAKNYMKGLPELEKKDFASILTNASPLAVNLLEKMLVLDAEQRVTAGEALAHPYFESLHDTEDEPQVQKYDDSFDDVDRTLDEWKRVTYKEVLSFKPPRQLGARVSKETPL
Chain of UniProt Q2M2I8 (whole entry, looked up): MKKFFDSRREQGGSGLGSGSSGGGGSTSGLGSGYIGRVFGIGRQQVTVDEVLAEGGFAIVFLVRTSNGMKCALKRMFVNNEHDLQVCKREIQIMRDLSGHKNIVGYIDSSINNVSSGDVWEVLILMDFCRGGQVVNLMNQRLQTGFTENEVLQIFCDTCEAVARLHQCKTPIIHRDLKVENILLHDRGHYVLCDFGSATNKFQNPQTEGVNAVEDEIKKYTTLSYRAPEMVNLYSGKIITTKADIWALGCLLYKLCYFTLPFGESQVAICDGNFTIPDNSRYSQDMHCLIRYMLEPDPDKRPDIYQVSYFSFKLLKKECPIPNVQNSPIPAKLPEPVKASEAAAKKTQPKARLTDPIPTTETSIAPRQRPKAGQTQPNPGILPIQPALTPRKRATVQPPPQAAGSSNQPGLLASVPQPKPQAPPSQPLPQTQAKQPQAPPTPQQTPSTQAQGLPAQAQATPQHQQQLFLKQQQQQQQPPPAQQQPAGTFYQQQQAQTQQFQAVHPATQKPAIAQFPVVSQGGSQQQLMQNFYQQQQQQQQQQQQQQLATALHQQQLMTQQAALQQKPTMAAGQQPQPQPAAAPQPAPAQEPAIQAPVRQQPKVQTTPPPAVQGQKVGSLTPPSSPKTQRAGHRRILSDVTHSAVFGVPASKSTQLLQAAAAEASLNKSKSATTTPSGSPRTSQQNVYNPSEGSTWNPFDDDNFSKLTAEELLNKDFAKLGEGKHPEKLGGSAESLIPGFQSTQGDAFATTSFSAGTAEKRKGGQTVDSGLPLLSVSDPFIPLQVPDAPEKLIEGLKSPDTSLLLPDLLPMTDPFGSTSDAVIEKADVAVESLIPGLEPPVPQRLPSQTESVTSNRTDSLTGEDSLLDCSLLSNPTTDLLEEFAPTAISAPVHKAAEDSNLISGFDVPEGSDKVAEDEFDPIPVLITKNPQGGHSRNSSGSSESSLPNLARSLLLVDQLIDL
Chain of UniProt Q7L7X3 (whole entry, looked up): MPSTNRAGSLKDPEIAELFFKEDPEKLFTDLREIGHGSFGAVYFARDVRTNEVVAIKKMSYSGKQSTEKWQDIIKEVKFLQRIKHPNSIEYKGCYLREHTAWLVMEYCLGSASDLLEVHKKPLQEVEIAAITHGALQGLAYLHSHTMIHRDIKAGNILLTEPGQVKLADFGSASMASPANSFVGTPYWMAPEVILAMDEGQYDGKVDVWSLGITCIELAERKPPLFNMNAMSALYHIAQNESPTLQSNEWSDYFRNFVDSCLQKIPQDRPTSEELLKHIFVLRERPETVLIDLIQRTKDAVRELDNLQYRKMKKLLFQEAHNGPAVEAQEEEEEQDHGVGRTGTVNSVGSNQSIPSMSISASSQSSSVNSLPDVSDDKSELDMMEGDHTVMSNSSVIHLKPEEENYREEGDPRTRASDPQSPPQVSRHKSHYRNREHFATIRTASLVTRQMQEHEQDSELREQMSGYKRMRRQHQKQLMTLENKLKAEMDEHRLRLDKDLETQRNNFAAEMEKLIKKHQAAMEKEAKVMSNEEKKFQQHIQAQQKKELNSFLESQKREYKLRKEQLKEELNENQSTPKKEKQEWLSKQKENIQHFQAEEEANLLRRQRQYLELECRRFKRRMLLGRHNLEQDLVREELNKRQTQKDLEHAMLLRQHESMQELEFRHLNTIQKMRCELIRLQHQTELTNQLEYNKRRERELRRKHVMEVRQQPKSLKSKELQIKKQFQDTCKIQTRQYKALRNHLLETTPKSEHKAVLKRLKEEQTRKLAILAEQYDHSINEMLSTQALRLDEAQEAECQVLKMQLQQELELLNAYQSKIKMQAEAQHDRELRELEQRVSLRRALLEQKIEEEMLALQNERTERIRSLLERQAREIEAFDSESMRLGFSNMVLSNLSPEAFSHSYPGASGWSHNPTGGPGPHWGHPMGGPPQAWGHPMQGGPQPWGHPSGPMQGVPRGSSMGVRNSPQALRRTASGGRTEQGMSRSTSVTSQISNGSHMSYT

Sample 1
SMILES: O=C(Nc1ccccc1)Nc1cccc(Oc2ccc3nccn3n2)c1
Tested at: 1 µM
Endpoint: remaining binding
MAP2K6 (Homo sapiens, UniProt P52564); competitive binding panel, refers to: MEK6; baseline: vehicle: 100%
MAP4K5 (Homo sapiens, UniProt Q9Y4K4); competitive binding panel; baseline: vehicle: 100%
NEK5 (Homo sapiens, UniProt Q6P3R8); competitive binding panel; baseline: vehicle: 100%
MET (Homo sapiens, UniProt P08581); competitive binding panel; baseline: vehicle: 100%
RPS6KA5 (Homo sapiens, UniProt O75582); competitive binding scan; C-terminal kinase domain 2: 100%
EPHA2 (Homo sapiens, UniProt P29317); competitive binding panel; baseline: vehicle: 70%
DAPK3 (Homo sapiens, UniProt O43293); competitive binding panel; baseline: vehicle: 100%
AAK1 (Homo sapiens, UniProt Q2M2I8); competitive binding panel; baseline: vehicle: 100%
MAPK12 (Homo sapiens, UniProt P53778); competitive binding; p38-gamma: 81%
RAF1 (Homo sapiens, UniProt P04049); competitive binding panel; baseline: vehicle: 79%
TAOK1 (Homo sapiens, UniProt Q7L7X3); competitive binding panel; baseline: vehicle: 100%
BUB1 (Homo sapiens, UniProt O43683); competitive binding panel; baseline: vehicle: 100%
MAPK7 (Homo sapiens, UniProt Q13164); competitive binding panel, refers to: ERK5; baseline: vehicle: 100%

Sample 2
Structure (SMILES): NC(=O)c1ccc(-c2nc(-c3ccc4c(c3)OCCO4)c(-c3ccccn3)[nH]2)cc1
Effect on: enzyme activity
Action: inhibitor
Tested at: 0.5 µM
Baseline: control
Endpoint: remaining activity
NEK4 (Homo sapiens, UniProt P51957): 98.2%
MAPK12 (Homo sapiens, UniProt P53778): 102%
MAP2K6 (Homo sapiens, UniProt P52564): 107%
CHEK1 (Homo sapiens, UniProt O14757): 167%
PRKCD (Homo sapiens, UniProt Q05655): 107%
EPHA5 (Homo sapiens, UniProt P54756): 89.7%
AKT3 (Homo sapiens, UniProt Q9Y243): 101%
PLK2 (Homo sapiens, UniProt Q9NYY3): 96.6%
CSNK1A1 (Homo sapiens, UniProt P48729): 37.1%
MKNK2 (Homo sapiens, UniProt Q9HBH9): 92.3%
MAP4K2 (Homo sapiens, UniProt Q12851): 92.6%
Cyclin-dependent kinase 9, with cyclin T1 (CDK9, Homo sapiens, UniProt P50750): 96.8%
CSNK2A1 (Homo sapiens, UniProt P68400): 122%
MAPK13 (Homo sapiens, UniProt O15264): 99.5%
WNK2 (Homo sapiens, UniProt Q9Y3S1): 93.5%
LYN (Homo sapiens, UniProt P07948): 99.9%
MAP3K10 (Homo sapiens, UniProt Q02779): 94.4%
BTK (Homo sapiens, UniProt Q06187): 91.6%
KIT (Homo sapiens, UniProt P10721): 119%
PRKCI (Homo sapiens, UniProt P41743): 102%
IRAK4 (Homo sapiens, UniProt Q9NWZ3): 100%
LRRK2 (Homo sapiens, UniProt Q5S007): 105%

Sample 3
Target: Calcium/calmodulin-dependent protein kinase type II subunit alpha (CAMK2A, Homo sapiens, UniProt Q9UQM7)
Chain of UniProt Q9UQM7 (whole entry, looked up): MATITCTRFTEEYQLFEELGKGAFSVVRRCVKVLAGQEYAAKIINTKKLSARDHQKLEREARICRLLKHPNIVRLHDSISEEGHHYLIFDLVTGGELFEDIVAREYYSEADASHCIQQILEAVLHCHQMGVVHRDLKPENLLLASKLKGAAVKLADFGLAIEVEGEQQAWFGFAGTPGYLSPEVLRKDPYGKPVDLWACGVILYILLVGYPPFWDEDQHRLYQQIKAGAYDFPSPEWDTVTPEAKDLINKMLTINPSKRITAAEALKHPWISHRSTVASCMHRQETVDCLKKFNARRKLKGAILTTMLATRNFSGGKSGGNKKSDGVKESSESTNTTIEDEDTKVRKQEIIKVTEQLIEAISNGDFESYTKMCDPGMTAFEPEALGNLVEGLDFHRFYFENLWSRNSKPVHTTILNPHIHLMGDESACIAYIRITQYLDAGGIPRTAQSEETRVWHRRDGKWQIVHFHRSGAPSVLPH
Effect on: enzyme activity
Action: inhibitor
Tested at: 10 µM
Endpoint: inhibition
COc1cc(O)c2c(=O)cc(-c3ccc(OC)c(-c4c(O)cc(O)c5c(=O)cc(-c6ccc(O)cc6)oc45)c3)oc2c1: -8%
O=C1CN(/N=C/C=C/c2ccc([N+](=O)[O-])o2)C(=O)N1: 1%
C[C@H](CCC(=O)O)[C@H]1CC[C@H]2[C@@H]3CC=C4C[C@@H](O)CC[C@]4(C)[C@H]3CC[C@]12C: 19%
COC(=O)[C@H]1[C@H]2C[C@H]3c4[nH]c5ccccc5c4CCN3C[C@H]2CC[C@@H]1O: 15%
Clc1ccc(C(Cn2ccnc2)OCc2csc3c(Cl)cccc23)c(Cl)c1 (stereo not shown): 0%
CNS(=O)(=O)CCc1ccc2[nH]cc(C3CCN(C)CC3)c2c1: -6%
CCOC(=O)CCC(=O)OCC: -35%
COc1cc2c(c(OC)c1OC)-c1c(cc3c(c1OC)OCO3)C[C@H](C)[C@H](C)C2: -0.02% and 0.03%
Oc1cc2cc[nH]c2cc1O: 13%
Cc1cccc(C)c1OCC(=O)N[C@@H](Cc1ccccc1)[C@@H](O)C[C@H](Cc1ccccc1)NC(=O)[C@H](C(C)C)N1CCCNC1=O: -4%

Sample 4
Structure (SMILES): Cc1noc([C@H]2C[C@@H](c3ccc(C(F)(F)F)cc3)CN(C(=O)N3CCS(=O)(=O)C3)C2)n1
Tested at: 1 µM
Endpoint: remaining binding
MYLK2 (Homo sapiens, UniProt Q9H1R3); cell-free assay, competition with immobilised ligand: 100%
CSNK2A2 (Homo sapiens, UniProt P19784); cell-free assay, competition with immobilised ligand: 90%
CDK19 (Homo sapiens, UniProt Q9BWU1); competition binding: 100%
AKT2 (Homo sapiens, UniProt P31751); cell-free assay, competition with immobilised ligand: 96%
HASPIN (Homo sapiens, UniProt Q8TF76); cell-free assay, competition with immobilised ligand: 100%
ACVR1B (Homo sapiens, UniProt P36896); cell-free assay, competition with immobilised ligand: 100%
PRKD3 (Homo sapiens, UniProt O94806); cell-free assay, competition with immobilised ligand: 100%
MAP3K3 (Homo sapiens, UniProt Q99759); cell-free assay, competition with immobilised ligand: 84%
PLK1 (Homo sapiens, UniProt P53350); cell-free assay, competition with immobilised ligand: 81%
FLT3 (Homo sapiens, UniProt P36888, D835V/ITD); cell-free assay, competition with immobilised ligand: 89%
EGFR (Homo sapiens, UniProt P00533, L858R); cell-free assay, competition with immobilised ligand: 100%
CDK13 (Homo sapiens, UniProt Q14004); cell-free assay, competition with immobilised ligand: 96%
MAP4K2 (Homo sapiens, UniProt Q12851); cell-free assay, competition with immobilised ligand: 100%
MYLK4 (Homo sapiens, UniProt Q86YV6); cell-free assay, competition with immobilised ligand: 100%
MAP3K4 (Homo sapiens, UniProt Q9Y6R4); cell-free assay, competition with immobilised ligand: 72%
MET (Homo sapiens, UniProt P08581, M1250T); cell-free assay, competition with immobilised ligand: 100%
STK32C (Homo sapiens, UniProt Q86UX6); cell-free assay, competition with immobilised ligand: 100%
MAP3K1 (Homo sapiens, UniProt Q13233); cell-free assay, competition with immobilised ligand: 100%
PIK3CA (Homo sapiens, UniProt P42336, Q546K); cell-free assay, competition with immobilised ligand: 100%
SIK2 (Homo sapiens, UniProt Q9H0K1); cell-free assay, competition with immobilised ligand: 100%
AAK1 (Homo sapiens, UniProt Q2M2I8); binding: 100%
STK36 (Homo sapiens, UniProt Q9NRP7); cell-free assay, competition with immobilised ligand: 100%
HCK (Homo sapiens, UniProt P08631); cell-free assay, competition with immobilised ligand: 100%
LIM domain kinase 2 (LIMK2, Homo sapiens, UniProt P53671); cell-free assay, competition with immobilised ligand: 100%
PIK3CA (Homo sapiens, UniProt P42336, E542K); cell-free assay, competition with immobilised ligand: 71%
